Measurements from different studies.
A part holds a random share of what one study measured. Values joined by “and” are separate records of one study, mostly repeats; a detail may differ.
UniProt P49760, sequence (whole entry, looked up): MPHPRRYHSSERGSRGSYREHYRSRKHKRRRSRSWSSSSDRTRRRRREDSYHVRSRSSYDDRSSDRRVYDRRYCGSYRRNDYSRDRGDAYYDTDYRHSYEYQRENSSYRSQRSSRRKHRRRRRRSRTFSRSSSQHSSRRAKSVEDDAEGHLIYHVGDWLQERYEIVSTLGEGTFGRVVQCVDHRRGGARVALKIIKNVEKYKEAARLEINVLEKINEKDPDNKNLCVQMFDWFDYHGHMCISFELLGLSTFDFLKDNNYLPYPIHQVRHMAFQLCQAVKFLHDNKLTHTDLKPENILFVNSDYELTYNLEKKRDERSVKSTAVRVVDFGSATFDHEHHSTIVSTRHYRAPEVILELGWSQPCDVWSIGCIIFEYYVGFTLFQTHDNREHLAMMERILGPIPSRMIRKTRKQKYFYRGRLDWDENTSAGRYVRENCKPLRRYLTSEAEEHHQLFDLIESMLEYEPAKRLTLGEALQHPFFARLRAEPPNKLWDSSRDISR
UniProt Q13164, sequence (whole entry, looked up): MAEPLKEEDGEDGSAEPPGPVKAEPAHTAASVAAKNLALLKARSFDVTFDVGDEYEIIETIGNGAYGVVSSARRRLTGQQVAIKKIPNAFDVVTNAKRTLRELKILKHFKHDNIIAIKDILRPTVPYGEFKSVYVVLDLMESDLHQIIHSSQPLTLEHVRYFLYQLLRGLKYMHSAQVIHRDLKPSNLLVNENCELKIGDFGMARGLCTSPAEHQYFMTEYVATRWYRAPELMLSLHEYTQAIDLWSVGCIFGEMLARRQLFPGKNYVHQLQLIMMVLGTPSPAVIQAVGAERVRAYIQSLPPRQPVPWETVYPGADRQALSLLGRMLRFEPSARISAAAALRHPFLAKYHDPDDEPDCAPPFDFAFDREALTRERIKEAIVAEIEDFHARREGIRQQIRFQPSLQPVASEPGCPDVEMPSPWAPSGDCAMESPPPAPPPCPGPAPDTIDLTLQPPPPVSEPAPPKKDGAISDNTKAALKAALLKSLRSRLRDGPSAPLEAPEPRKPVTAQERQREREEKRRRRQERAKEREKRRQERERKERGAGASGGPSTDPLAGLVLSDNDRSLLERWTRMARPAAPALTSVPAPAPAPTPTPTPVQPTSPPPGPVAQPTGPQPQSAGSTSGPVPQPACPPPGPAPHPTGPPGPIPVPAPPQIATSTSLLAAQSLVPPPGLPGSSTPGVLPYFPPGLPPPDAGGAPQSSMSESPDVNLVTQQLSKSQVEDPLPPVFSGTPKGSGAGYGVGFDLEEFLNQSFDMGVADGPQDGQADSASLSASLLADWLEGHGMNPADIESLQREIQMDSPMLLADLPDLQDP

Block 1
Compound: Cc1sc(C(=O)NC2COC2)cc1-n1cc(NC(=O)Nc2c(F)cccc2Cl)cn1
Concentration: 10 µM
Quantity: remaining activity
MET (Homo sapiens, UniProt P08581); enzyme activity; reference: untreated control: 74.5%
CSNK1D (Homo sapiens, UniProt P48730); enzyme activity; reference: untreated control: 107%
STK38L (Homo sapiens, UniProt Q9Y2H1); enzyme activity; reference: untreated control: 93.8%
Cyclin-dependent kinase 5, with p25 (CDK5, Homo sapiens, UniProt Q00535); enzyme activity; reference: untreated control: 97%
BRSK1 (Homo sapiens, UniProt Q8TDC3); enzyme activity; reference: untreated control: 85%
TSSK6 (Homo sapiens, UniProt Q9BXA6); enzyme activity, inhibitor: 94%
PDGFRB (Homo sapiens, UniProt P09619); enzyme activity; reference: untreated control: 88.3%
RIPK4 (Homo sapiens, UniProt P57078); enzyme activity; reference: untreated control: 98.5%
RPS6KA3 (Homo sapiens, UniProt P51812); enzyme activity; reference: untreated control: 71.4%
CDC42BPG (Homo sapiens, UniProt Q6DT37); kinase activity, kinase panel profiling: 118%
FGFR3 (Homo sapiens, UniProt P22607); enzyme activity; reference: untreated control: 136%
FLT1 (Homo sapiens, UniProt P17948); enzyme activity; reference: untreated control: 82.6%
CLK2 (Homo sapiens, UniProt P49760); enzyme activity; reference: untreated control: 105%

Block 2
SMILES: CC(=O)C1=C(C)N(c2cccc(C(F)(F)F)c2)C(=O)N[C@@H]1c1ccc(C#N)nc1
Read-out: cell-free assay
Technique: competition with immobilised ligand
Concentration: 1 µM
Quantity: remaining binding
Tyrosine-protein kinase ABL1, non-phosphorylated (ABL1, Homo sapiens, UniProt P00519, Q252H): 100%
SIK3 (Homo sapiens, UniProt Q9Y2K2): 100%
WNK2 (Homo sapiens, UniProt Q9Y3S1): 94%
PIM2 (Homo sapiens, UniProt Q9P1W9): 98.2%
GRK3 (Homo sapiens, UniProt P35626): 92.6%
TGFBR2 (Homo sapiens, UniProt P37173): 67.8%
RET (Homo sapiens, UniProt P07949, V804L): 97.4%
STK26 (Homo sapiens, UniProt Q9P289): 100%
GRK7 (Homo sapiens, UniProt Q8WTQ7): 100%
IRAK1 (Homo sapiens, UniProt P51617): 100%
AKT3 (Homo sapiens, UniProt Q9Y243): 90.6%
Ribosomal protein S6 kinase alpha-5, N-terminal kinase domain (RPS6KA5, Homo sapiens, UniProt O75582): 89.2%
CDK3 (Homo sapiens, UniProt Q00526): 100%
MAP4K4 (Homo sapiens, UniProt O95819): 99.3%
CASK (Homo sapiens, UniProt O14936): 100%
MAPK10 (Homo sapiens, UniProt P53779): 100%
Non-receptor tyrosine-protein kinase TYK2, JH2 (TYK2, Homo sapiens, UniProt P29597): 94.9%
ULK3 (Homo sapiens, UniProt Q6PHR2): 100%
IRAK4 (Homo sapiens, UniProt Q9NWZ3): 100%
NTRK1 (Homo sapiens, UniProt P04629): 100%
ERBB2 (Homo sapiens, UniProt P04626): 95.6%
MAP3K2 (Homo sapiens, UniProt Q9Y2U5): 100%
MAPK7 (Homo sapiens, UniProt Q13164): 100%
AXL (Homo sapiens, UniProt P30530): 100%
TSSK3 (Homo sapiens, UniProt Q96PN8): 96.2%

Block 3
Target: DNA polymerase theta, ATPase domain (POLQ, Homo sapiens, UniProt O75417)
UniProt O75417, sequence (whole entry, unmodified, looked up): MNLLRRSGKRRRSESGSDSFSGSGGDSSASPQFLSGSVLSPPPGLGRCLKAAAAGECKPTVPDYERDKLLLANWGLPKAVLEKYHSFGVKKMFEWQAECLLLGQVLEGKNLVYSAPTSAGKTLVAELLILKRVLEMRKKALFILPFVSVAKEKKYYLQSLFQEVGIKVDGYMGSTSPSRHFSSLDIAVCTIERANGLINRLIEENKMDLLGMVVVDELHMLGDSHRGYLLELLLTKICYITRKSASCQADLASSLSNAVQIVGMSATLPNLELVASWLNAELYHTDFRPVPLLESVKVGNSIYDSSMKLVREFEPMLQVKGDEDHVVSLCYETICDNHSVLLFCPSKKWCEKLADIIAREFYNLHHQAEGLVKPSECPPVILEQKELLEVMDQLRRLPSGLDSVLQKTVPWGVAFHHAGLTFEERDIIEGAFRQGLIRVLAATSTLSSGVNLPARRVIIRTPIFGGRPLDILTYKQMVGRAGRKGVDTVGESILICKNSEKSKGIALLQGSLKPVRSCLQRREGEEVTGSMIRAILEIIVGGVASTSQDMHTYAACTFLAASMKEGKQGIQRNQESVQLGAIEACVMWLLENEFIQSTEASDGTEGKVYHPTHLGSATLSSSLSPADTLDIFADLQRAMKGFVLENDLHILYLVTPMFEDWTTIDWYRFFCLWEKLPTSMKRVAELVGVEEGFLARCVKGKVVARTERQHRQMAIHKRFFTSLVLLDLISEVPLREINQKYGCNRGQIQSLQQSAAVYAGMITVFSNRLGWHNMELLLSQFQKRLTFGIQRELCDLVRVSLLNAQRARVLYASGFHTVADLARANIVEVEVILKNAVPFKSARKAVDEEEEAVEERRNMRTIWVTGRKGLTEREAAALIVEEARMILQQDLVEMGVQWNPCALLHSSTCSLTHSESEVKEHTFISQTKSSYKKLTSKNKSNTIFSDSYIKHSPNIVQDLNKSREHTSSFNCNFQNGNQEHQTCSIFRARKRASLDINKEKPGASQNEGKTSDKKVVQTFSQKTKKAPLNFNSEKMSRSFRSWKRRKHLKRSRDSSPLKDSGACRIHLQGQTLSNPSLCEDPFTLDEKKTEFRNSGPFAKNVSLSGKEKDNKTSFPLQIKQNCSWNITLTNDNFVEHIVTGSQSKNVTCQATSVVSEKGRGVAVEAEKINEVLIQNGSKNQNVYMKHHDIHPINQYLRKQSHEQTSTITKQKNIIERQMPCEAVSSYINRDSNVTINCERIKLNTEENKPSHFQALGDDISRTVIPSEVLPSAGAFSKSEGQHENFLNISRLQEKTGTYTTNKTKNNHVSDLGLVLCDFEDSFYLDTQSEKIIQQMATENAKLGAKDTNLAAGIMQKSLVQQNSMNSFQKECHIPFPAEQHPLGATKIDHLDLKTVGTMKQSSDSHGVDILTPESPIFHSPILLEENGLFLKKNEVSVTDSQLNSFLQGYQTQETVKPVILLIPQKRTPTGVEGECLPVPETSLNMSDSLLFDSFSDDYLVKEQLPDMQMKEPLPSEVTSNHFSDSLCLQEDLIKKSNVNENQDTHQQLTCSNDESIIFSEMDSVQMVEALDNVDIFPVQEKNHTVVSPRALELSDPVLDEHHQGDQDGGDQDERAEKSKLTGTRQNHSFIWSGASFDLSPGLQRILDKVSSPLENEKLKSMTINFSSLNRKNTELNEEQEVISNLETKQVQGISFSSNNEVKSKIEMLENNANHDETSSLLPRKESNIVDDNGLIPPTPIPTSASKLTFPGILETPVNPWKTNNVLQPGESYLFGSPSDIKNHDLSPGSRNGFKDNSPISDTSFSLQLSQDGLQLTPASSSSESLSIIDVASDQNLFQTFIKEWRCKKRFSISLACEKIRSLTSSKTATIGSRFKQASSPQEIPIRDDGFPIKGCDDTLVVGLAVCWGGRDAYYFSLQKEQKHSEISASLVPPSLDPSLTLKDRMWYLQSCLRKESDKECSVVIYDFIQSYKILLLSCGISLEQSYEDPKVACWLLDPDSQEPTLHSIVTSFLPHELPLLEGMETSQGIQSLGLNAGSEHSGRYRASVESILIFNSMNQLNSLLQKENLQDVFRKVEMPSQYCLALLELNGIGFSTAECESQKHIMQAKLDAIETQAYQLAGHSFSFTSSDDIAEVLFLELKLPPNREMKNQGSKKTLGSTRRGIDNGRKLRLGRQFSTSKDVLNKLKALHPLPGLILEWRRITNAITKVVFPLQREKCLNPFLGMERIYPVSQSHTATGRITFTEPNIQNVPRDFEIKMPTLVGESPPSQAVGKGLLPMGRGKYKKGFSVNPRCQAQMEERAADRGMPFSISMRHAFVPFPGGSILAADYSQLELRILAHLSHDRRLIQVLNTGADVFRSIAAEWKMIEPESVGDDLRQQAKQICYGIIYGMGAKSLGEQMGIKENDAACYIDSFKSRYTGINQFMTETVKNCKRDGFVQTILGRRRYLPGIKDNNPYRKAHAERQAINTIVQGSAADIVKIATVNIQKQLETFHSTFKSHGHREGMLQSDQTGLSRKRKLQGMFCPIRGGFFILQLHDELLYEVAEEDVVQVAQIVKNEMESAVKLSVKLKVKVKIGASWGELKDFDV
Read-out: enzyme activity
Action: inhibitor
Concentration: 77 µM
Reference: untreated
Quantity: remaining activity
COCC(=O)O[C@]1(CCN(C)CCCc2nc3ccccc3[nH]2)CCc2cc(F)ccc2[C@@H]1C(C)C: 104%
CCOC(=O)[C@H](CCc1ccccc1)N[C@@H](C)C(=O)N1[C@H](C(=O)O)C[C@H]2CCCC[C@@H]21: 101%
NC(N)=NC(N)=Nc1cccc(Cl)c1: 100%
Cc1cc(O)c2c(c1)C(=O)c1cccc(O)c1C2=O: 101%
Nc1ccccc1NC(=O)c1ccc(CNc2nccc(-c3cccnc3)n2)cc1: 101%
CN(C)CCOc1ccc(-c2nc(-c3ccncc3)c(-c3ccc4c(c3)CC/C4=N\O)[nH]2)cc1: 133% and 108% and 143% and 129%
O=C(O)CN(CCN(CC(=O)O)CC(=O)O)CCN(CC(=O)O)CC(=O)O: 97%

Block 4
Structure (SMILES): C=CCc1ccc(O)c(-c2ccc(O)c(CC=C)c2)c1
Read-out: chloride current
Quantity: normalized current
ANO1 del476-501: Anoctamin-1 (ANO1, Homo sapiens, UniProt Q5XXA6, del476-501)
UniProt Q5XXA6, sequence (whole entry, unmodified, looked up): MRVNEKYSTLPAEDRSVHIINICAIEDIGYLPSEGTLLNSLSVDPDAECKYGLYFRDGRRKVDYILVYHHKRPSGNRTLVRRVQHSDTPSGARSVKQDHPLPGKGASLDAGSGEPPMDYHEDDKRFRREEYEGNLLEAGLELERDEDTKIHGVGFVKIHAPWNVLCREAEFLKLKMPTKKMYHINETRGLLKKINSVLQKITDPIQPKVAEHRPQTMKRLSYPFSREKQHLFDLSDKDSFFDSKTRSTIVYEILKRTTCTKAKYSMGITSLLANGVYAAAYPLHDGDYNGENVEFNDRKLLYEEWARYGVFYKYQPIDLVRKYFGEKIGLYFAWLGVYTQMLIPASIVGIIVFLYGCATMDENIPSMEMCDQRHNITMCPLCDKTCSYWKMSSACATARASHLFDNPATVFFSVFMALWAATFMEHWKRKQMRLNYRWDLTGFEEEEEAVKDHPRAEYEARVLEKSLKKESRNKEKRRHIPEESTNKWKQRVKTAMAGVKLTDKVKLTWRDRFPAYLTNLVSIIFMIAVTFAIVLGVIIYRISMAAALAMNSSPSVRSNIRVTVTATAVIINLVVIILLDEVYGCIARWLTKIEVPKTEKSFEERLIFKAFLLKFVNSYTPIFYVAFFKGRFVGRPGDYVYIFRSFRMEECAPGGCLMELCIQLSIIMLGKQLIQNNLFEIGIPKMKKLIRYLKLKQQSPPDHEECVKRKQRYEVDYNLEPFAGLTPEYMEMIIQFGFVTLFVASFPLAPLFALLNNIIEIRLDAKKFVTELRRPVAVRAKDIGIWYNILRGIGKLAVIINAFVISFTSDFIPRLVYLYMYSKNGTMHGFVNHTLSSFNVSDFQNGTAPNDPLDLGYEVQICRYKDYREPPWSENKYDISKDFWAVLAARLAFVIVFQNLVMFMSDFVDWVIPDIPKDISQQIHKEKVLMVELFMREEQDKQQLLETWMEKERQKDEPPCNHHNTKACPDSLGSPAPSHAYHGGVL
ANO1 del476-501/F628A: Anoctamin-1 (ANO1, Homo sapiens, UniProt Q5XXA6, del476-501/F628A)
Anoctamin-1 (ANO1, Homo sapiens, UniProt Q5XXA6, del476-501/R631A); inhibitor, whole-cell voltage clamp; 3 µM, R605A mutant: 0.45
ANO1 del476-501; whole-cell voltage clamp; 30 µM, wild type, concentration-response at -20 mV, with: 4 µM Ca2+: -0.012
ANO1 del476-501; whole-cell voltage clamp; 10 µM, wild type, concentration-response at -20 mV, with: 4 µM Ca2+: -0.0531
Anoctamin-1 (ANO1, Homo sapiens, UniProt Q5XXA6, del476-501/R541A); inside-out patch clamp; 10 µM, membrane voltage 120 mV: 1
ANO1 del476-501/F628A; whole-cell voltage clamp; 1 µM, I-V at 40 mV, with: 4 µM Ca2+: 0.297
ANO1 del476-501/F628A; whole-cell voltage clamp; 1 µM, concentration-response at 60 mV, with: 4 µM Ca2+: 0.578
ANO1 del476-501; whole-cell voltage clamp; 1 µM, wild type, I-V at 0 mV, with: 4 µM Ca2+: -0.0021
Anoctamin-1 (ANO1, Homo sapiens, UniProt Q5XXA6, del476-501/E649A); inhibitor, inside-out patch clamp; 10 µM, E623A mutant at -100 mV: -0.657
ANO1 del476-501/F628A; whole-cell voltage clamp; 3 µM, concentration-response at 20 mV, with: 4 µM Ca2+: 0.178
Anoctamin-1 (ANO1, Homo sapiens, UniProt Q5XXA6, del476-501/E659A); inside-out patch clamp; 10 µM, membrane voltage 20 mV: 0.177
TMEM16A (human) K603A/E623A; inside-out patch clamp; 10 µM, membrane voltage 20 mV: 0.0998
